Measurements pooled from the literature.
Every numbered part comes from another study and shows a few of its results, in no order.

Set 1
Target: Hepatocyte nuclear factor 3-alpha (Foxa1, Mus musculus, UniProt P35582, residues 1-468, full length assumed)
UniProt P35582, sequence (whole entry, looked up): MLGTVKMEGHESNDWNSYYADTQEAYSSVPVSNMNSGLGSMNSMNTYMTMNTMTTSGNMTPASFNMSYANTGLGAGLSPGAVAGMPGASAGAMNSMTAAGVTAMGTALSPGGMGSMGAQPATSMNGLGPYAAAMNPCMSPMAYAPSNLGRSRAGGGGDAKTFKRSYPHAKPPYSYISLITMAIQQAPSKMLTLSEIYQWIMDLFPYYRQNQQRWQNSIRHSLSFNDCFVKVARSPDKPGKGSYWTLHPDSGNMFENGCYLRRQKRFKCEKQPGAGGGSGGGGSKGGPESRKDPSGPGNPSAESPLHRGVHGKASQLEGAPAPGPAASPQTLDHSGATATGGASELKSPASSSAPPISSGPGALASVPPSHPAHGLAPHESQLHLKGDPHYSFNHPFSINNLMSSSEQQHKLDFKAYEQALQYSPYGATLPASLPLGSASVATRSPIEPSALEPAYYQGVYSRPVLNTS
Technique: EMSA with sequencing
Molecule type: double-stranded DNA, one strand shown
Sample: in vitro
Concentration: 10 and 20 nM
Notes: whole designed probe, mean of two concentrations, ends assumed
Relative to: negative control set to 0
Direction: higher = stronger binding
All sequences stand within: GTGAGCGGTGCCCATTGATGGGGAAC … TTTCACTGGGATCGTGGGGAC
Oligonucleotide | normalised bound fraction
CAGAAGAATTTTGAGACAAGTTCTCAAACATTTCTCTGCCTTATGGACCCAAACATCCAGTTTCTCCTTTATGCCCAGGTTGCAGTTCAGCTCCTGTTTACATTGAGATCTTTGTGCAATTCCTAATATGGCCCAGTTTCCCTCACCCAACATGTTGGGTGGAGCCCAGTATCTTCAGGCTCCAGCTGGGCCC | 0.245 ratio
GGCAATATAATTATTTACTGGGTGCGTGGCTCACGCCTGTAATCCCAGCATTTTGGGAGGCCTAATTTGTTAAAATGACTAGATCTAAGAAATGTAAACAAAGCCAGTAACTTTCCTCTGTAGTAACAATAGCCGGTTGAAAATGAAAACTACACATTTTCATTCTTTCAGTGGTTCTCTTAAACTTTAGCAT | 0.381 ratio
TTCTTCACTCTTCTCAGGCTGCTGTAAAACAGAATTGATAAAACCACATGTTTCAACTATTATTACAGTTTACATTGTAAGGAAATTTGCCTATGTAAACAAAAAAATGGAGAAAAAAGAGACTCATGTAACTTCTTTTGTAAATAGATGTATTGGGTTAGTAGCAGAACAACTGGGATTGTGAAAACAAAAA | 0.502 ratio
CCAAGAAAAAGAGCCTTTGGGTGAGTGCACAGCACCCCTCTGTCTTAGGTCCCCAGATATATCTCAATTTGGGCTTCTTCTGGAACATGAAACTATTTACTTTGAGTTTCCTACGAAAACATAGTGCTGGCCTTAGACTTCCTATCCTGAAACCCCACGTCTATTTCCCAACCTCATGCATGGAAAAGTGCTC | 0.217 ratio
GCAGGTCCTGGAATCTGTCAGGGGTGGGACTCTGCCATCTTGTGGTTCAATAAGCTCTCCAGATGATTCTGATGCACATGTTTGAGAGCCACTAGATTACATATAGCAGAGAAACCACCTGTCTCTCACCTCAAAGCTGACTCACCTGCAGAAACAATGAAAGATGATAATGACAGCCCCCCCAAAATACCTC | -0.0422 ratio
ATGAAACTGGTCCCTGGTGCCAAAAAGGTTGGGAACTGCTGACGTAGTGGATAAAGGGAACAGAGGTAAATAGACATTTAGTGTGAGGTTTCAAGATTACTTAGCTACGAATTAGGCTGTGTTTGCAGATTGCTGTCACTTTAGGTGTCAGAGGTTAAAATCTCTGGTGTCCTTGTTTCTGTCTCTCCTGTTG | 0.111 ratio
GAAGGAAATAATGGAGCCAACCATGCATATAACCTCAGGGAGAACATTCTAGGTAGAGGGAACAGCAAGTGCAAAGGCCCTGAAGTGGGGGTTTGTTTACCTTCTGCAGTTGCACAATCACAGGCCAGTACAATTGGAATGGATGGGAAATGTAAAAGAGAGAAGTTGAAAAGGCCAGGTGCAGTGGCTCATG | 0.389 ratio
CCCACCTAGCATAAAATCAAGTAAAGGAGATAACAAATACACCTAAATAAATAATCAAAAATTCTAGAGTGGCTTGAAATCTACATACTACTAAGTAATTTTGGAGATGCTGAGAGTAGAACAATATTTATATATGATCAGAGGAATAAAGGAAGTGTCACAGAAAAAATAATATTCCAACTGAGCCATATGA | 0.411 ratio

Set 2
Target: PABPC1L2, full length, GST fusion (mouse, UniProt A0ABA7IW68)
Technique: RNAcompete
Molecule type: RNA
Sample: in vitro
Concentration: 20 nM
Notes: 7-mer, probes averaged, single round
Relative to: mean of 7-mers
Direction: higher = stronger binding
Residues (chain): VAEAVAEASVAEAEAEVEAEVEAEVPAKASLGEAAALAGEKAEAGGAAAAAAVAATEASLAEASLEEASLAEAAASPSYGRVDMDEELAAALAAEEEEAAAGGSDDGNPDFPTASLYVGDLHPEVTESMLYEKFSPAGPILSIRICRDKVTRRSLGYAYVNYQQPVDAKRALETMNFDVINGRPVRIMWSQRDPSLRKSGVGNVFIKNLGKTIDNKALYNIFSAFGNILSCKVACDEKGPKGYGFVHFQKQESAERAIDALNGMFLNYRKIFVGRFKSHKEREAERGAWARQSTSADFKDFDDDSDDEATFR
Oligonucleotide | 7-mer Z-score
AGAAGUU | -0.126
UGAUAAC | -0.0881
GCGAUAG | -0.00108
GUCCCAC | -0.171
UAAUGCC | -0.151
CAUCUAG | 0.017
CCGUUCC | -0.36
GCACACG | -0.0808

Set 3
Target: Centromere-binding protein 1, full length, N-terminal tag (CBF1, Saccharomyces cerevisiae, UniProt P17106, residues 1-351)
UniProt P17106, sequence (whole entry, looked up): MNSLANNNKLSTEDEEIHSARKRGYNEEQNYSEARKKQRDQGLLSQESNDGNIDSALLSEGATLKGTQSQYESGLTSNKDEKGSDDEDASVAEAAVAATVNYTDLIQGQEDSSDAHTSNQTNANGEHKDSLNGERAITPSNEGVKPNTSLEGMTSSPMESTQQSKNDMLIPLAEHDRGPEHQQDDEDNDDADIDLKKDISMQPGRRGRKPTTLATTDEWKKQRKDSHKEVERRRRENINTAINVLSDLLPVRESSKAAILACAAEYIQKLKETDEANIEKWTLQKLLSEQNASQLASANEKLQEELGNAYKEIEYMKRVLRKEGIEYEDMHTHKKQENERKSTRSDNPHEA
Technique: protein-binding microarray
Molecule type: double-stranded DNA, one strand shown
Sample: in vitro
Concentration: 0.8 µM
Notes: whole 60-bp probe, no competitor
Direction: higher = stronger binding
All sequences stand within: … GTCTTGATTCGCTTGACGCTGCTG
Oligonucleotide | fluorescence intensity [a.u.]
GAAATGAATACTGATCATGTGAAACATGATTAATAG | 2720
GAATGCCACAATTACCACCACACAGAGGCAGGATAG | 529
GAATGTAGATGGGACCATCAGATGTGGAACGAATAG | 527
CCTAACTACTATAATCAGGTACAATAGCTTCGTACA | 500
GAATATTCACTTTTGAACGTGACGGTAATTTTGTAG | 1230
CTAGCACTTGAGCACCTCATGCACAGCAATAACTTC | 541
GAACTAAAGAACGTGCATCAGAGAAGAATGACCTAG | 1030
CTAATCACCTAGCATCATGCTCTTCATACATGCTTC | 533

Single results of other studies
Molecule | target | assay | system | setting | quantity | value
IVDCLTEMYY | HLA class I histocompatibility antigen, C alpha chain, allele C*04:01 (Homo sapiens, UniProt P10321) | peptide-MHC binding | peptide | concentration not given | binding | inactive
